Measured values from different studies.
Numbers after ± are the reported error.

Under “α4β7− CCR9+ cells”, `CC[C@H](C)[C@H](NC(=O)[C@H](Cc1c[nH]c2ccccc12)NC(=O)[C@H](CCCNC(=N)N)NC(=O)[C@H](CCCCN)NC(=O)[C@H](CC(C)C)NC(=O)[C@H](CC(=O)O)NC(=O)[C@H](Cc1ccccc1)NC(=O)[C@H](C)NC(=O)[C@H](Cc1ccc(O)cc1)NC(=O)[C@H](CC(N)=O)NC(=O)[C@H](Cc1ccc(O)cc1)NC(=O)[C@H](CCCNC(=N)N)NC(=O)[C@H](Cc1ccc(O)cc1)NC(=O)[C@H](Cc1ccc(O)cc1)NC(=O)[C@@H](NC(=O)[C@H](CC(C)C)NC(=O)[C@H](C)NC(=O)[C@H](CC(N)=O)NC(=O)[C@H](Cc1ccc(O)cc1)NC(C)=O)[C@@H](C)CC)C(=O)N[C@@H](Cc1ccc(O)cc1)C(=O)N[C@@H](CC(C)C)C(N)=O` is recorded as 7.14% (refers to: HA-52 tetramer; antigen-experienced tetramer+ CD4 T cells, healthy adults, HLA-DRB1*0101; dose not given).
`CCN(Cc1ccccc1)C(=O)CCc1nc(CN2CCN(C(=O)Cc3ccc(OC)c(OC)c3)CC2)no1` — result for “resting membrane potential”: -67.5 ± 2.69 mV (current clamp; L4-L6 DRG neurons, rat CCI model; 3 µM).
`Cc1cc(O)cc(C)c1CC(N)C(=O)NC1CCNc2c(C)cc(Cc3ccccc3)cc21` (centres unmarked): “tail withdrawal latency” 20 s (warm water tail withdrawal; male C57BL/6 mouse; ip, 10 mg/kg, 50 °C, cutoff 20 s).
`COc1ccc(F)cc1S(=O)(=O)Nc1cnc2c(c1)C(=O)NCCO2` — result for “plasma PLP level”: “increased” (refers to: pyridoxal 5'-phosphate; C57BL/6J mouse; oral, 1 or 10 mg/kg, first 6 h; relative to: vehicle).
`CC[C@H](C)[C@H](NC(=O)[C@H](C)NC(=O)CNC(=O)[C@@H](N)CCSC)C(=O)N[C@@H](C)C(=O)N[C@@H](CCCCN)C(=O)N[C@@H](CC(C)C)C(=O)N[C@@H](CCCNC(=N)N)C(=O)N[C@@H](C)C(=O)N[C@@H](CCCCN)C(=O)N[C@@H](Cc1ccccc1)C(=O)NCC(=O)N[C@@H](Cc1c[nH]c2ccccc12)C(=O)N1CCC[C@H]1C(=O)N[C@@H](Cc1ccccc1)C(=O)N[C@H](C(=O)N[C@@H](CCCCN)C(=O)N[C@@H](CCCCN)C(=O)N[C@@H](Cc1ccccc1)C(=O)N[C@@H](Cc1ccc(O)cc1)C(=O)N[C@@H](CCCCN)C(=O)N[C@@H](CCC(N)=O)C(=O)N[C@H](C(=O)N[C@@H](CCSC)C(=O)N[C@@H](CCC(N)=O)C(=O)N[C@@H](Cc1ccccc1)C(=O)N[C@H](C(=O)NCC(=O)N[C@@H](CCC(N)=O)C(=O)NCC(=O)N[C@@H](Cc1c[nH]c2ccccc12)C(=O)N[C@H](C(=O)N[C@H](C(=O)N[C@@H](CC(=O)O)C(=O)N[C@@H](CCC(N)=O)C(=O)N[C@H](C(=O)N[C@@H](CCC(=O)O)C(=O)N[C@@H](CCCCN)C(=O)N[C@@H](Cc1c[nH]c2ccccc12)C(=O)N[C@@H](CC(C)C)C(=O)N[C@@H](CCCCN)C(=O)N[C@@H](CCCNC(=N)N)C(=O)N[C@@H](Cc1c[nH]cn1)C(=O)O)[C@@H](C)CC)[C@@H](C)CC)[C@@H](C)O)[C@@H](C)CC)[C@@H](C)CC)[C@@H](C)CC` has a calcein release of 30.1 ± 1.1% (PG/PE 1:1 liposomes; MIC; relative to: Triton X-100).
Under “α4β7− CCR9− cells”, `CC[C@H](C)[C@H](NC(=O)[C@@H](NC(=O)[C@H](CC(=O)O)NC(C)=O)[C@@H](C)O)C(=O)N[C@@H](CCCNC(=N)N)C(=O)N[C@@H](CC(C)C)C(=O)N[C@@H](CC(C)C)C(=O)N[C@@H](Cc1ccccc1)C(=O)N[C@@H](CCC(N)=O)C(=O)N[C@@H](CC(C)C)C(=O)N[C@@H](CCSC)C(=O)N[C@@H](CCCNC(=N)N)C(=O)N1CCC[C@H]1C(=O)N1CCC[C@H]1C(=O)N[C@@H](CC(N)=O)C(=O)N[C@@H](CCSC)C(=O)N[C@H](C(=O)N1CCC[C@H]1C(=O)N[C@@H](C)C(=O)N[C@H](C(=O)N[C@@H](CC(N)=O)C(=O)N[C@@H](C)C(N)=O)C(C)C)[C@@H](C)O` is recorded as 3.33% (refers to: HA-02 tetramer; antigen-experienced tetramer+ CD4 T cells, healthy adults, HLA-DRB1*0101; dose not given).
Under “log2 fold change”, `Cc1ccc(/C=C/C(=O)O)cc1-c1cc2c(cc1C)C(C)(C)CCC2(C)C` is recorded as 0.2 (RNA sequencing, refers to: Upp1; rat, brain; dose not given, 24 h; relative to: vehicle).
For `N=C(N)NCCC[C@H]1NC(=O)[C@H](CCCN)NC(=O)[C@@H](Cc2c[nH]cn2)NC(=O)[C@H](Cc2ccc(O)cc2)NC(=O)[C@@H](Cc2ccc(O)cc2)NC(=O)[C@H](Cc2ccccc2)NC(=O)[C@@H](Cc2c[nH]c3ccccc23)NC(=O)[C@H](CO)NC1=O`, “pre-beta HDL concentration” read 63 ± 10 µg/mL (ELISA; human plasma; concentration not given).
`Cc1cc(O)cc(C)c1CC(N)C(=O)NC1CCNc2c(Br)cc(Cc3ccccc3)cc21` (centres unmarked) — result for antinociception: “inactive” (warm water tail withdrawal; male C57BL/6 mice; intraperitoneal, 10 mg/kg).
`CC[C@H](C)[C@H](NC(=O)[C@H](CCCNC(=N)N)NC(=O)[C@H](CCC(N)=O)NC(=O)[C@H](CC(=O)O)NC(=O)[C@H](CC(C)C)NC(=O)[C@H](CC(C)C)NC(=O)[C@H](CC(N)=O)NC(=O)[C@H](Cc1ccccc1)NC(=O)[C@H](CC(=O)O)NC(=O)[C@@H](NC(=O)[C@@H](NC(=O)[C@H](CC(N)=O)NC(=O)CNC(=O)[C@H](CO)NC(C)=O)C(C)C)[C@@H](C)CC)C(=O)N[C@H](C(=O)N[C@@H](Cc1c[nH]c2ccccc12)C(=O)N[C@@H](CCC(N)=O)C(=O)N[C@@H](CC(N)=O)C(=O)N[C@@H](Cc1c[nH]c2ccccc12)C(=O)N[C@@H](Cc1ccc(O)cc1)C(=O)N[C@@H](C)C(N)=O)[C@@H](C)CC` — result for “α4β7− CCR9+ cells”: 7.69% (refers to: HA-51 tetramer; antigen-experienced tetramer+ CD4 T cells, healthy adults, HLA-DRB1*0101; dose not given).
`CC1(O)CC23CC(O)C4(O)C(C5OC5C4(C)C)C(C)(O)C2CCC1C3O` (centres unmarked): licking time “active” (formalin phase I; mouse formalin test; oral, 0.10 mg/kg, 0.25 h; relative to: saline).
The analgesic ED50 of `Cc1cc(O)cc(C)c1C[C@H](N)C(=O)N[C@H](C)C(=O)N[C@@H](Cc1ccccc1)C(=O)N[C@@H](Cc1ccccc1)C(N)=O` is reported as 0.1 µg (tail flick; C57BL/6 mice; intracerebroventricular).
`O=C(O)CCn1c(=O)oc2cc(Cl)c(Cl)cc21`: “free tryptophan level” 42 µM (rat, plasma; dose not given).
`C[C@]12CC[C@H](O)CC1CCC1C2[C@H](O)C(=O)[C@]2(C)[C@@H](c3ccc(=O)oc3)CC[C@]12O` (some centres unmarked) has a Vmax of 0.032 ± 0.002 nmol/min/mg (sulfation, substrate; rat liver cytosol).
`CC(C)C[C@@H]1NC(=O)[C@H](C(C)C)NC(=O)[C@H](CO)NC(=O)CNC(=O)CNC(=O)[C@H](CCCNC(=N)N)NC(=O)[C@@H]2CCCN2C(=O)[C@@H](NC(=O)CC[C@H](NC(=O)c2ccc(N(C)Cc3cnc4nc(N)nc(N)c4n3)cc2)C(=O)O)C(C)(C)SSC[C@@H](C(=O)O)NC(=O)CNC(=O)[C@H]([C@@H](C)O)NC(=O)[C@H](C(C)C)NC1=O`: “spleen weight increase suppression” 49% (rat adjuvant arthritis; intravenous, 1 mg/kg once daily, day 14; relative to: arthritis vehicle).
For `CCN(CCCCOc1ccc(CCC(=O)N2CCC(Cc3ccccc3)CC2)cc1OC)Cc1ccccc1`, “VLDLR protein level” read “increased” (proteomics; mouse, APP/PS1, cerebral cortex; dose not given).
`COC[C@@H](NC(C)=O)C(=O)NCc1ccc(OCc2cccc(OC(F)(F)F)c2)cc1` has a licking time of 114% (formalin test, phase I; mouse; ip, 12 mg/kg; relative to: vehicle).
The median survival of `C[C@@H](O)[C@H](NC(=O)[C@@H]1CSSC[C@H](NC(=O)[C@@H](Cc2ccccc2)NC(=O)CN2CCN(CC(N)=O)CCN(CC(N)=O)CCN(CC(N)=O)CC2)C(=O)N[C@@H](Cc2ccc(O)cc2)C(=O)N[C@H](Cc2c[nH]c3ccccc23)C(=O)N[C@@H](CCCCN)C(=O)N[C@@H]([C@@H](C)O)C(=O)N1)C(=O)O` [lead-212 labelled] is reported as 11.9 weeks (AR-42J tumour, mice; 3 x 10 µCi, two-week intervals).
The licking time of `COC[C@@H](NC(C)=O)C(=O)NCc1ccc(OCc2ccccc2F)cc1` is reported as 69% (formalin test, phase I; mouse; ip, 7.0 mg/kg; relative to: vehicle).
`COc1cc(C(Oc2ccc(C[C@H](N)C(=O)N[C@H](C)C(=O)NCC(=O)N(C)[C@@H](Cc3ccccc3)C(=O)NCCO)cc2)C(=O)O)c([N+](=O)[O-])cc1OC` (some centres unmarked): “duration of velocity increase” > 25 min (mouse; intra-VTA infusion, 0.5 µL, 200 µM, with: 375 nm light uncaging).

Repeated from above:
`CC[C@H](C)[C@H](NC(=O)[C@H](CCCNC(=N)N)NC(=O)[C@H](CCC(N)=O)NC(=O)[C@H](CC(=O)O)NC(=O)[C@H](CC(C)C)NC(=O)[C@H](CC(C)C)NC(=O)[C@H](CC(N)=O)NC(=O)[C@H](Cc1ccccc1)NC(=O)[C@H](CC(=O)O)NC(=O)[C@@H](NC(=O)[C@@H](NC(=O)[C@H](CC(N)=O)NC(=O)CNC(=O)[C@H](CO)NC(C)=O)C(C)C)[C@@H](C)CC)C(=O)N[C@H](C(=O)N[C@@H](Cc1c[nH]c2ccccc12)C(=O)N[C@@H](CCC(N)=O)C(=O)N[C@@H](CC(N)=O)C(=O)N[C@@H](Cc1c[nH]c2ccccc12)C(=O)N[C@@H](Cc1ccc(O)cc1)C(=O)N[C@@H](C)C(N)=O)[C@@H](C)CC` — result for “α4β7− CCR9+ cells”: 7.69% (refers to: HA-51 tetramer; antigen-experienced tetramer+ CD4 T cells, healthy adults, HLA-DRB1*0101; dose not given).
`Cc1cc(O)cc(C)c1CC(N)C(=O)NC1CCNc2c(C)cc(Cc3ccccc3)cc21` (centres unmarked): “tail withdrawal latency” 20 s (warm water tail withdrawal; male C57BL/6 mouse; ip, 10 mg/kg, 50 °C, cutoff 20 s).
